# Results of several laboratories.
# Compare with care: the assays were run in different laboratories. ± gives the spread as reported.
Substance,assay,system,setting,retention time
CCCCCCCCCCCCCCCCCC(=O)N[C@@H](Cc1ccccc1)C(=O)N[C@H](C(=O)NCC(=O)N[C@H](C(=O)N[C@@H](CC(C)C)C(=O)N[C@H](C(=O)N1CCC[C@H]1C(=O)N[C@@H](CC(C)C)C(=O)N[C@@H](C)C(=O)N[C@@H](CC(C)C)C(=O)NCC(=O)N[C@@H](C)C(=O)N[C@@H](CC(C)C)C(=O)N[C@H](C(=O)N[C@@H](CCCCN)C(=O)N[C@@H](CC(C)C)C(=O)N[C@@H](Cc1ccccc1)C(=O)N[C@@H](CCCCN)C(N)=O)[C@@H](C)O)[C@@H](C)CC)[C@@H](C)O)[C@@H](C)CC,reversed-phase HPLC,,hydrophobicity measure,13.2 min
CC(=O)N[C@H](CCCCN)C(=O)N[C@H](CC(C)C)C(=O)N[C@@H](CCN)C(=O)N[C@H](CO)C(=O)N[C@H](CC(C)C)C(=O)N[C@H](CC(C)C)C(=O)N[C@@H](CCN)C(=O)N[C@@H](C(=O)N[C@H](CC(C)C)C(=O)N[C@H](CO)C(=O)N[C@@H](CCN)C(=O)N[C@H](C)C(=O)N[C@H](C)C(=O)N[C@H](C)C(=O)N[C@H](C)C(=O)N[C@H](C)C(=O)N[C@H](CC(C)C)C(=O)N[C@@H](CCN)C(=O)N[C@@H](C(=O)N[C@H](CC(C)C)C(=O)N[C@H](CC(C)C)C(=O)N[C@@H](CCN)C(=O)N[C@H](C)C(=O)N[C@H](CC(C)C)C(=O)N[C@H](CO)C(=O)N[C@@H](CCN)C(N)=O)[C@H](C)O)[C@H](C)O,RP-HPLC C8,,"pH 2, 25 °C, hydrophobicity measure",158 min
CC[C@H](C)[C@H](NC(=O)[C@H](C)NC(=O)[C@H](CCCCN)NC(=O)[C@H](CC(C)C)NC(=O)[C@H](C)NC(=O)[C@@H](NC(=O)[C@H](Cc1c[nH]cn1)NC(=O)[C@H](CC(C)C)NC(=O)[C@@H](NC(=O)[C@@H](NC(=O)[C@H](CCCCN)NC(=O)[C@H](CCCCN)NC(=O)[C@H](C)NC(=O)[C@H](CO)NC(=O)[C@H](CCCCN)NC(=O)[C@H](Cc1ccccc1)NC(=O)[C@@H](NC(=O)[C@H](CCCCN)NC(=O)[C@H](CC(C)C)NC(=O)[C@H](Cc1ccccc1)NC(=O)[C@H](CO)NC(=O)[C@H](CCCCN)NC(=O)[C@H](Cc1c[nH]c2ccccc12)NC(=O)[C@H](CCCCN)NC(C)=O)[C@@H](C)O)[C@@H](C)O)C(C)C)[C@@H](C)O)C(=O)N[C@@H](CO)C(=O)N[C@@H](CO)C(N)=O,RP-HPLC,Zorbax 300 SB-C8 column,30 °C,30.3 min
CC[C@H](C)[C@H](NC(=O)[C@H](CCCNC(=N)N)NC(=O)[C@H](CO)NC(=O)[C@H](CC(C)C)NC(=O)[C@H](Cc1ccccc1)NC(=O)[C@H](Cc1ccccc1)NC(=O)[C@@H](N)Cc1ccccc1)C(=O)N[C@@H](Cc1ccccc1)C(N)=O,"reverse-phase HPLC, C18","acetonitrile gradient 5-95%, 0.1% TFA",,14.3 min
CC[C@H](C)[C@@H]1NC(=O)[C@@H]2CSSC[C@H](NC(=O)[C@@H](NC(=O)CN)[C@@H](C)O)C(=O)N[C@@H](CC(N)=O)C(=O)N[C@@H]([C@@H](C)O)C(=O)N3CCC[C@H]3C(=O)NCC(=O)N[C@H]3CSSC[C@H](NC(=O)[C@H](CCSC)NC(=O)[C@H](CC(C)C)NC(=O)[C@H](CCCNC(=N)N)NC(=O)CNC(=O)CNC(=O)[C@H](CC(=O)O)NC1=O)C(=O)NCC(=O)N[C@@H](CCC(=O)O)C(=O)N[C@@H]([C@@H](C)O)C(=O)N[C@H](C(=O)N[C@H](C(=O)NCC(=O)O)C(C)C)CSSC[C@H](NC(=O)[C@H]([C@@H](C)O)NC3=O)C(=O)N[C@@H](CO)C(=O)N[C@@H](Cc1c[nH]c3ccccc13)C(=O)N1CCC[C@H]1C(=O)N[C@@H](C(C)C)C(=O)N2,reversed-phase HPLC C18,,acetonitrile gradient 5 to 51% over 36 min,27 min
"Ac-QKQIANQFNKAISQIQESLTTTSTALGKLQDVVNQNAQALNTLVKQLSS-NH2 (N-acetyl, C-amide)",size-exclusion HPLC,"phosphate buffer 50 mM, NaCl 100 mM","0.2 mM, oligomerization state",43.2 min
CC(=O)N[C@H](CCCCN)C(=O)N[C@H](CC(C)C)C(=O)N[C@@H](CN)C(=O)N[C@H](CO)C(=O)N[C@H](CC(C)C)C(=O)N[C@H](CC(C)C)C(=O)N[C@@H](CN)C(=O)N[C@@H](C(=O)N[C@H](CC(C)C)C(=O)N[C@H](CO)C(=O)N[C@@H](CN)C(=O)N[C@H](C)C(=O)N[C@H](C)C(=O)N[C@H](C)C(=O)N[C@H](C)C(=O)N[C@H](C)C(=O)N[C@H](CC(C)C)C(=O)N[C@@H](CN)C(=O)N[C@@H](C(=O)N[C@H](CC(C)C)C(=O)N[C@H](CC(C)C)C(=O)N[C@@H](CN)C(=O)N[C@H](C)C(=O)N[C@H](CC(C)C)C(=O)N[C@H](CO)C(=O)N[C@@H](CN)C(N)=O)[C@H](C)O)[C@H](C)O,RP-HPLC C8,,"pH 2, 25 °C, hydrophobicity measure",172 min
CCCC(=O)N[C@@H](Cc1ccccc1)C(=O)N[C@H](C(=O)NCC(=O)N[C@H](C(=O)N[C@@H](CC(C)C)C(=O)N[C@H](C(=O)N1CCC[C@H]1C(=O)N[C@@H](CC(C)C)C(=O)N[C@@H](C)C(=O)N[C@@H](CC(C)C)C(=O)NCC(=O)N[C@@H](C)C(=O)N[C@@H](CC(C)C)C(=O)N[C@H](C(=O)N[C@@H](CCCCN)C(=O)N[C@@H](CC(C)C)C(=O)N[C@@H](Cc1ccccc1)C(=O)N[C@@H](CCCCN)C(N)=O)[C@@H](C)O)[C@@H](C)CC)[C@@H](C)O)[C@@H](C)CC,reversed-phase HPLC,,hydrophobicity measure,11.8 min
C[C@H](NC(=O)[C@H](CCCNC(=N)N)NC(=O)[C@H](Cc1c[nH]c2ccccc12)NC(=O)[C@H](CCC(N)=O)NC(=O)[C@H](Cc1c[nH]c2ccccc12)NC(=O)[C@@H](N)CCCNC(=N)N)C(=O)N[C@@H](CCC(N)=O)C(=O)N[C@@H](Cc1c[nH]c2ccccc12)C(=O)N[C@@H](CCCNC(=N)N)C(N)=O,RP-HPLC C18,,hydrophobicity measure,5.6 min
CC[C@H](C)[C@H](NC(=O)[C@H](CCCCN)NC(=O)[C@H](CCCCN)NC(=O)[C@@H](NC(=O)[C@@H](NC(=O)[C@H](CC(=O)O)NC(=O)[C@H](Cc1ccccc1)NC(=O)[C@H](CC(C)C)NC(=O)CN)[C@@H](C)CC)[C@@H](C)CC)C(=O)N[C@@H](C)C(=O)N[C@@H](CCC(=O)O)C(=O)N[C@@H](CO)C(=O)N[C@@H](Cc1ccccc1)C(N)=O,RP-HPLC C18,,hydrophobicity,23.93 ± 0.01 min
